Assay results collected from several papers.
A part holds a random share of what one study measured.
UniProt P62837, sequence (whole entry, looked up): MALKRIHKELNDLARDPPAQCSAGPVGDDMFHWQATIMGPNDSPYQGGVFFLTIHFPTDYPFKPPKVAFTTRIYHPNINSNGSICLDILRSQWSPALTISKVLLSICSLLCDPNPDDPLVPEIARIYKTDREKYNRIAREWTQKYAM

Block 1 — method: RNA Bind-n-Seq; form: RNA; matrix: in vitro; tested at: 365 nM; relative to: no-protein control; direction: higher = stronger binding; endpoint: RBNS enrichment (R)
Target: RNA binding protein fox-1 homolog 2, RRM domain, GST-SBP tag (RBFOX2, Homo sapiens, UniProt O43251-10, residues 100-194)
Notes: natural RNA segment, single round, ends assumed
All sequences stand within: GGGAGUUCUACAGUCCGACGAUC … UGGAAUUCUCGGGUGCCAA
Construct (chain): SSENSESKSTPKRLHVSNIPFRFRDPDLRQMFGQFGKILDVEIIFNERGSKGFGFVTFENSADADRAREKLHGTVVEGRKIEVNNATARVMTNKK
ACUUGGUAAUUCAUUAACUCUUUGUAUCUCAGAGUGAAGAUUUGACUUAAACUUUGCAUUGAAAGUUUGGAAAAUUACUUGAAAUAAAAAAAGAUUUUUAUACAAAUACA: 0.78
GGUGUUUGAUCCCUGCCCAGUGUUGUCGCACAGGGGAAGGGCAGAUACCAAGACCUGUCUGUUGGAUCUGUUUUGUUGAGAUAAACUGAUGUCCUUACAUUUCAUUUGUA: 0.458
UUCUAGCCGUUCUGAUCUGUAAGCUAGAGGCUGGAACCCAAAACCACAUACAUUUUUAAAAUCGAGUAUAGAAUUCACCAGGGUUGAAAAUGACUGGCAGACAAUAUAUG: 0.86
GUGCUGCGGCCUGUUCAUAUGCUCUCAUACUUUUUCAAAUCAUGAUGAGAAUUUUUCUCCUAUAUACUAAAUCCUCUUAAAGACUCAACUCUUUGUAGUUUUGUCAAAGA: 0.9
CGGUGGAGGCCACGCCGUCGGUCGGGAACGGUCGCGUCGCCCGGGUCGCCGCCGCCGCCGCCGCCGUCAUCCUCGCCUCUCGCUUCCCUCUGGGAGCUGCGCGCGCUUCA: 0.222
GGGACUCACUGUCAGAGUUAGCGUGGAUUGCUGCUGCCGGGGCACUACCUCCUGGCUUCUCUCCCUGCUGACGUGGCUCUUGUCCUGGAGCAGAGCAGUGCGUUGUUGGG: 0.3
GCCCACGCUUAGGAAUGCUUGGCCUCUGGCAGGCAGGCAGCUGUACCCAAGCUGGUGGGCAGGGGGCUGGAAGGCACCAGGCCUCAGGAGGAGCCCCAUAGUCCCGCCUG: 0.429
UCUAGGCAGCGAGUGCAGGUGACAACGGUGGUCUAGGGAGAGUUACUGGUAUGGAACACAGACAUGGCGGGGCCCCAGAAGGCCUUUGUAACUGUUUCUUCAACUCUUGC: 0.484

Block 2 — method: aptamer microarray, sandwich; form: DNA with 2'F-ANA; matrix: in vitro; tested at: 200 nM; added: Cy3 exosite-II aptamer, 400 nM; direction: higher = stronger binding; endpoint: mean fluorescence intensity; oligonucleotide: GGTTGGTGTGGTTGG
Target: Prothrombin, mature alpha-thrombin (F2, Homo sapiens, UniProt P00734)
Notes: whole 15-mer aptamer, many near background
2'F-ANA at 2 3 4 5 6 9 11: 72.9 a.u.
2'F-ANA at 1 2 3 4 5 7 8 9 11 14: 45.6 a.u.
2'F-ANA at 1 3 5 9 10 11 13 14 15: 68 a.u.
2'F-ANA at 1 2 4 6 11 14 15: 47.2 a.u.
2'F-ANA at 2 4 5 6 11 14 15: 60.8 a.u.
2'F-ANA at 1 2 3 4 6 9 11 12 13 14 15: 58.2 a.u.
2'F-ANA at 1 2 5 8 9 11 12 15: 103 a.u.
2'F-ANA at 3 8 10 11 12 13 14: 409 a.u.

Block 3 — method: protein-binding microarray; form: double-stranded DNA, one strand shown; matrix: in vitro; tested at: 2540 nM top; notes: 60-bp whole probe; added: salmon DNA 0.4 mg/ml; relative to: random background probes; direction: higher = stronger binding; endpoint: fitted relative affinity; all sequences stand within: GCCTAGCAC … GTCTTGATTCGCTTGACGCTGCTG
Target: Interferon regulatory factor 3, full length, phosphomimetic (IRF3, Homo sapiens, UniProt Q14653, residues 1-427, S386D/S396D/S398D/S402D/T404D/S405D)
UniProt Q14653, sequence (whole entry, unmodified, looked up): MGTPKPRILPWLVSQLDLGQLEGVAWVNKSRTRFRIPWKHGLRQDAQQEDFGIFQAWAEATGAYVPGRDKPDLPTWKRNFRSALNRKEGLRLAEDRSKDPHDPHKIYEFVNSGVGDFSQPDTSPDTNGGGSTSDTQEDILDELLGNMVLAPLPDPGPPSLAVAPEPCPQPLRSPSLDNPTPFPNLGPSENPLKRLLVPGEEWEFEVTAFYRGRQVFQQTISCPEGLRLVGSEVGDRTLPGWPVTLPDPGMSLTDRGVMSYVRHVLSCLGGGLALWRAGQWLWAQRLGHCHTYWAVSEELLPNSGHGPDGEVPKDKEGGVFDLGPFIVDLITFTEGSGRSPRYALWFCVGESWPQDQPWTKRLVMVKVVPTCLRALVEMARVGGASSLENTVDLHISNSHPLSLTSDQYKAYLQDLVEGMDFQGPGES
TTAGGACTGGACGTTCGGTTAGTGCTA: -0.433 z-score
TTAGATATCAGTCACGATTAGTGCTAG: 0.0726 z-score
GACAATTTGGAAACCGAGTGGTGCTAG: 1.3 z-score
ATTCATATATATATGAAAAAGTGCTAG: 1.46 z-score
TTCGAATTCAGAATGGGAGAGTGCTAG: 0.774 z-score
ATAGGTTTCCTTATCCTTTAGTGCTAG: 8.19 z-score
GACGGTTTCGGTGTCGGGACGTGCTAG: 6.45 z-score
GACGACATCAGTTTCGAGACGTGCTAG: 2 z-score

Mixed results
B1: CBLL1 RING domain (UniProt Q75N03); chain GEKDDTPVHFCDKCGLPIKIYGRMIPCKHVFCYDCAILHEKKGDKMCPGCSDPVQRIEQCT
B1 (CBLL1 RING domain) — lacZ reporter activity (UBE2D2 UBC core domain (UniProt P62837); yeast two-hybrid; yeast; mostly zero background; relative to: not given, higher = stronger interaction): 0

Some of these lines once more (block 1):
ACUUGGUAAUUCAUUAACUCUUUGUAUCUCAGAGUGAAGAUUUGACUUAAACUUUGCAUUGAAAGUUUGGAAAAUUACUUGAAAUAAAAAAAGAUUUUUAUACAAAUACA: 0.78
GGUGUUUGAUCCCUGCCCAGUGUUGUCGCACAGGGGAAGGGCAGAUACCAAGACCUGUCUGUUGGAUCUGUUUUGUUGAGAUAAACUGAUGUCCUUACAUUUCAUUUGUA: 0.458
UUCUAGCCGUUCUGAUCUGUAAGCUAGAGGCUGGAACCCAAAACCACAUACAUUUUUAAAAUCGAGUAUAGAAUUCACCAGGGUUGAAAAUGACUGGCAGACAAUAUAUG: 0.86
